Experimental data from different studies.
Target: Serine/threonine-protein kinase PAK 4 (PAK4, Homo sapiens, UniProt O96013)
UniProt O96013, sequence (whole entry, looked up): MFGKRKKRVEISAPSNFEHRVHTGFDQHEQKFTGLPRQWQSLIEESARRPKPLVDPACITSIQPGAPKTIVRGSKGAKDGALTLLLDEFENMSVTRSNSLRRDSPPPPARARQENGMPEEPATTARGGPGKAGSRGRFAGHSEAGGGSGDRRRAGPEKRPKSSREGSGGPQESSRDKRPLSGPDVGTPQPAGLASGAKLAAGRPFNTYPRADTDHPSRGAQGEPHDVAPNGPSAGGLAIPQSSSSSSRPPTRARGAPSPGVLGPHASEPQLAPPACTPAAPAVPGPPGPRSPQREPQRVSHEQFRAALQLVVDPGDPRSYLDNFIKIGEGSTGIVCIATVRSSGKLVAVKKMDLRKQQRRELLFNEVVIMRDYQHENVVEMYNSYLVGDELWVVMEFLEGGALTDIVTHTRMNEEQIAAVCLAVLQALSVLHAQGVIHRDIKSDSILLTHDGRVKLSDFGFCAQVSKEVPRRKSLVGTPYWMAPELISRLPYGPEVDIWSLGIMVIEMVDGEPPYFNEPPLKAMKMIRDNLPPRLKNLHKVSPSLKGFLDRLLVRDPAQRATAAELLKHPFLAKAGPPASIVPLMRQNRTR

`Nc1ccc(/C=C/C(=O)N2CCc3c(oc4c(-c5ccc(F)cc5)cc(-c5ccc(C(=O)N6CCC(F)(F)CC6)cn5)cc34)C2)cn1` gave a remaining binding of 91% (binding, competition with immobilised ligand; 1 µM).
`CC(C)[C@H]1NC(=O)C[C@H]2/C=C/CCSSC[C@@H](NC1=O)C(=O)N[C@H](Cc1cccc3ccccc13)C(=O)NCC(=O)O2` has an inhibition of 1.3% (enzyme activity, inhibitor; 10 µM).
For `CS(C)(=O)=Nc1ccc(-c2ccc(-c3nc4cc(O[C@@H]5CO[C@H]6[C@@H]5OC[C@H]6O)[nH]c4cc3F)cc2)cc1`, the inhibition was 2% (enzyme activity, inhibitor; 10 µM).
For `C[C@H](NCc1ccc(-c2ccc(C(F)(F)F)cc2)cc1)C(N)=O`, the inhibition was 0% (cell-free assay, competition with immobilised ligand; 1 µM).
The remaining binding of `CCOC(=O)[C@@H]1Cc2c(cc([N+](=O)[O-])cc2[N+](=O)[O-])[C@H](O)[C@]12C(=O)Nc1ccc(Br)cc12` is reported as 93% (binding, competition with immobilised ligand; 0.1 µM).
For `O=C(N[C@@H]1c2ccccc2C[C@H]1N1CCCC1)c1ccc(-c2ccnc3[nH]ccc23)nc1`, the remaining binding was 6.5% (binding, competition with immobilised ligand; 3 µM).
`N[C@H](C(=O)N1CCCC1)C1CCN(c2nccc3c(-c4ncc(Cl)cc4Cl)cccc23)CC1` has an inhibition of 1.4% (kinase activity, inhibitor; 10 µM, together with: ATP 1 mM).
With `O=C1NC(=O)c2c1c1cc(F)c[n+]3c1c1c2c2cc(O)ccc2[n]1[Ru-4]312([N]=C=S)[S+]3CC[S+]1CC[S+]2CC3` (centres unmarked) the remaining activity was 71% (enzyme activity; 100 nM, human enzyme, together with: 10 µM ATP; relative to: untreated).

A few entries again:
`N[C@H](C(=O)N1CCCC1)C1CCN(c2nccc3c(-c4ncc(Cl)cc4Cl)cccc23)CC1` has an inhibition of 1.4% (kinase activity, inhibitor; 10 µM, together with: ATP 1 mM).
